Assay results from different studies.
A part holds a random share of what one study measured. Positions count from the first letter of the parent shown.

Set 1
Target: CCND1, cyclin fold, Cln2 fusion (human)
Method: yeast growth competition, sequencing
Medium: yeast
Notes: strong parent motif
Relative to: not given
Direction: higher = stronger binding
Starting sequence: PKN2 docking peptide (human); VSAVRKLDFSDTM; partner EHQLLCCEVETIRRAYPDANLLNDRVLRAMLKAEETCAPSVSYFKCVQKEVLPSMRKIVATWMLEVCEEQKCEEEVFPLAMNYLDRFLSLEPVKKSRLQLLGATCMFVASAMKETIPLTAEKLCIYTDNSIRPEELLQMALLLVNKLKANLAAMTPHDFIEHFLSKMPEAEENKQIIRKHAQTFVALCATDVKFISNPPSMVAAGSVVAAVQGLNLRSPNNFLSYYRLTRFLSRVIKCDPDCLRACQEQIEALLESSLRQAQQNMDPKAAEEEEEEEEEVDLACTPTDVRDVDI
`VSACRKLDFSDTM [V4C]`: “normalised enrichment score” 5.35.
Under “normalised enrichment score”, `VSWVRKLDFSDTM [A3W]` is recorded as 0.401.
Under “normalised enrichment score”, `VGAVRKLDFSDTM [S2G]` is recorded as 5.31.
`VSAVRKLDGSDTM [F9G]` — result for “normalised enrichment score”: 0.24.

Set 2
Target: Histone acetyltransferase KAT6A, both winged helices, GST fusion (KAT6A, Homo sapiens, UniProt Q92794, residues 1-181)
Method: protein binding microarray
Molecule type: double-stranded DNA, one strand shown
Medium: in vitro
Tested at: not given
Notes: 8-mer, flanks averaged, mean of 2 arrays, mostly near background
Relative to: not given
Direction: higher = stronger binding
Residues (chain): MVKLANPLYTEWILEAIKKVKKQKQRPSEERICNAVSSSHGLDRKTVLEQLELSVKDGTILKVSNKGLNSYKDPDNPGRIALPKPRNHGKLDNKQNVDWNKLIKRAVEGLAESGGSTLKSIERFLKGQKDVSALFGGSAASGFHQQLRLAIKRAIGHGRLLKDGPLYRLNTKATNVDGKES
The E-score of `AGTCGGTA` is reported as 0.0118.
The E-score of `ACCCGTAT` is reported as 0.229.
For `GCCAGAAA`, the E-score was -0.21.
`CTGACACA` gave an E-score of -0.138.
`CTACCCGA` gave an E-score of 0.0819.

Set 3
Target: RNA binding protein fox-1 homolog 2, RRM domain, GST-SBP tag (RBFOX2, Homo sapiens, UniProt O43251-10, residues 100-194)
Method: RNA Bind-n-Seq
Molecule type: RNA
Medium: in vitro
Tested at: 365 nM
Notes: natural RNA segment, single round, ends assumed
Relative to: no-protein control
Direction: higher = stronger binding
Residues (chain): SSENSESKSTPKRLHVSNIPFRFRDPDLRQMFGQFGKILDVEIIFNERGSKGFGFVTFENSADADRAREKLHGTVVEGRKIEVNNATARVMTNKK
`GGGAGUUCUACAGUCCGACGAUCAACAGCAAGCAUUAUGGUCAAACAGCAAAGGCCAUAACCUUUUGGGAUUUUUUUUUUUUUAAAAUACUUUAGGGACUGUUGUAAUUUCUCAUAUGGUGCUGGAAAUGGUUUGGAAUUCUCGGGUGCCAA`: “RBNS enrichment (R)” 0.683.
Under “RBNS enrichment (R)”, `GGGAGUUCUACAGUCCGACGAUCCAUCAUAUGGAGAAGUUUACAUGGUGAUUGUUCACCUGCAGUACUGUGGAGUUUUAACAUUUUGUCCUCUUUUCAGUGAAACAGAGUAAAAAUAUUCAUCUACCAUUACUUGGAAUUCUCGGGUGCCAA` is recorded as 0.301.
For `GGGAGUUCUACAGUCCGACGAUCCAAAAUACUCUCAUUUCGGUUUUUCCUGAAACCUUAUUUGGCCAUUCCCAUGGUUUUAUGACAGACAAGCCUUGUCUUCUAUUCAUAUAGAUAUGCACCUUUUUCUACAUUGGAAUUCUCGGGUGCCAA`, “RBNS enrichment (R)” read 0.614.
`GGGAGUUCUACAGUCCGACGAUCCAGCAGAUUAUAAUCUUGUCAACAGUUCAUUGUCUCCUCUUAGUACCACCAGUCACCUGCAUCAUUCAUGCUAGAAGCUGUGUUCUAGCCAUGCAGUUACAUCUCUUUCUUGGAAUUCUCGGGUGCCAA`: “RBNS enrichment (R)” 0.448.
`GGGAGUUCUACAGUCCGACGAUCGAAACUUAAACAUAUAAAAACAUCUAACUGCUUUGUCCUUUUUUAAUUUCAAUAUGUUUAUACUGGUGACUUUUAAGUCAUCUUGUAUUAUCCUGGGUAGGGUGAAAACCUGGAAUUCUCGGGUGCCAA` — result for “RBNS enrichment (R)”: 0.666.
Under “RBNS enrichment (R)”, `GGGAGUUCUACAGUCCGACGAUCAAAUAUCCCUGUUCUUAGUUACCUUGCCACUUUGGCUUCUCCUGUGGCCCUGCCUUUACCAUAUCAGUGACAGAGAGAGGCUGCUUCAGGUCUGAGGCUAUCCCUCAGCCUGGAAUUCUCGGGUGCCAA` is recorded as 0.353.
For `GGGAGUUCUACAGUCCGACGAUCCACGUGCCCUCCCUGCCACCCUCCGUCUAGAGCAAGCGGAUGCCCCCCAGCCUGCAGCAGAAGCCUCCACAGUGAGAACUGGACCCAAAGGUAGUGGGGGCCGGUGUGGGUGGAAUUCUCGGGUGCCAA`, “RBNS enrichment (R)” read 0.984.
`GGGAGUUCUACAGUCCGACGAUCAACACACGUGUUGGUGCUUCUGGGUAGCACUGGUUUGCAUUAGUUUAUGUUUCCAUGCCAGAGUUUGUGUGGGCGGGCGCAUGUGCACCACAGAGUGCACUCGAGGGGACUGGAAUUCUCGGGUGCCAA`: “RBNS enrichment (R)” 8.73.
Under “RBNS enrichment (R)”, `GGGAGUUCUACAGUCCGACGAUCCUCUGGGCCUCCUCUAACAGGGGCUGGUGGGCACCAAGAGCCAAUGGAGUAGACCCCUGGCUGGUAAGGGCCAAGUCCCACCGGUUGCUUCUGGGAAGGGGUUUCUAACAUGGAAUUCUCGGGUGCCAA` is recorded as 0.789.
Under “RBNS enrichment (R)”, `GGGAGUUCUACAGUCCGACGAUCGAUUAUGAGCUAAUUUUUUUUAUAGGACACAGAAUUCUAUUCAAUGCUGUUAAAUAUGCAAAUAGUUUAAUCUUUUUUUCUUUUGUUGUUUGAUGGGAAAUUGUGACAUUUGGAAUUCUCGGGUGCCAA` is recorded as 0.884.

Further values, each from its own experiment
`PhoQ, residues 284 288 289 292 302 303 TSTLRA` has a fold induction of 7.47 (PhoP, residues 12 14 15 18 19 HLGGL (Escherichia coli, UniProt P23836); Sort-seq, measured: YFP reporter; E. coli; PhoQ-PhoP variant library, added: 10 µM Mg2+; relative to: high Mg2+ state, higher = stronger signaling).

Excerpt of the above (set 3):
Under “RBNS enrichment (R)”, `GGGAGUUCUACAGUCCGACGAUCAAAUAUCCCUGUUCUUAGUUACCUUGCCACUUUGGCUUCUCCUGUGGCCCUGCCUUUACCAUAUCAGUGACAGAGAGAGGCUGCUUCAGGUCUGAGGCUAUCCCUCAGCCUGGAAUUCUCGGGUGCCAA` is recorded as 0.353.
